Experimental data gathered from unrelated publications.
Each line is one published result; not all experiments were run side by side. Several values in a cell are separate wells, animals, samples, runs or records. Numbers after ± are the reported error.

For `COc1cccc(CCNc2nc3cc(C(=O)O)ccc3c3cncnc23)c1`, “number of kinases inhibited” read 0 (DYRK and HIPK kinases; enzyme activity, inhibitor, eight-kinase enzymatic panel; 1 µM, percent of control below 10).
For `C[n+]1cccc2cc(C=NNC(=O)c3ccc4ccc5ccc(C(=O)NN=Cc6ccc7c(ccc[n+]7C)c6)nc5c4n3)ccc21.[I-].[I-]`, the ΔTm was 29.3 ± 1 °C (myc22 MYC G4-DNA parallel; FRET melting; 1 µM, K1 buffer, DNA 0.2 µM).
`CCCCOc1cc(C(=O)OCCN(CC)CC)ccc1N` has an inhibition of 20.8% (THP-1; pyroptotic LDH release; 2 µM, 40 min, with: LPS then nigericin).
`N#Cc1cccc(Nc2nc3cc(C(=O)O)ccc3c3cncnc23)c1`: “number of kinases inhibited” 3 (DYRK and HIPK kinases; enzyme activity, inhibitor, eight-kinase enzymatic panel; 1 µM, percent of control below 10).
`CCNC(=O)/C=C/c1cccc(Br)c1` has a L-leucine uptake of 45.1 nmol/mg protein and 46.4 nmol/mg protein and 42.2 nmol/mg protein (endogenous leucine transporters, hamster; L-[14C]leucine uptake; CHO-BC cells; 30 µM, 6 min, 37 °C, with sodium).
`CC1(C)S[C@@H]2[C@H](NC(=O)[C@H](N)c3ccccc3)C(=O)N2[C@H]1C(=O)O` has an inhibition of -9.88% (THP-1; pyroptotic LDH release; 2 µM, 40 min, with: LPS then nigericin).
`COc1cccc(CCNc2nc3cc(C(=O)O)ccc3c3cnccc23)c1` — result for “number of kinases inhibited”: 1 (DYRK and HIPK kinases; enzyme activity, inhibitor, eight-kinase enzymatic panel; 1 µM, percent of control below 10).
With `COc1cccc(Nc2nc(NCC3CCCO3)c3ccccc3n2)c1.Cl` (stereo not drawn) the inhibition was 55.3% (Renilla luciferase reporter mRNA; in vitro translation, inhibitor; Trypanosoma cruzi translation extract; 20 µM).
For `Oc1ccccc1-c1n[nH]cc1-c1ccnc2ccccc12`, “log2 fold change” read -0.1 (KSP1 (Candida albicans); kinase binding, MIB/MS competition; Candida albicans lysate; 1 µM; baseline: DMSO).
`Cl.Fc1ccc(Nc2nc(NCC3CCCO3)c3ccccc3n2)cc1` (stereo not drawn) has an inhibition of 81.1% (Renilla luciferase reporter mRNA; in vitro translation, inhibitor; Trypanosoma cruzi translation extract; 40 µM).
`O=C(O)c1ccc2c(c1)nc(Nc1ccccc1)c1ncncc12` — result for “number of kinases inhibited”: 2 (DYRK and HIPK kinases; enzyme activity, inhibitor, eight-kinase enzymatic panel; 1 µM, percent of control below 10).
`Cl.OCCNc1nc(Nc2ccccc2)nc2ccccc12` gave an inhibition of 77.8% (Renilla luciferase reporter mRNA; in vitro translation, inhibitor; Trypanosoma cruzi translation extract; 40 µM).
The ΔTm of `O=C(NN=Cc1ccc(C[n+]2ccccc2)cc1)c1ccc2ccc3ccc(C(=O)NN=Cc4ccc(C[n+]5ccccc5)cc4)nc3c2n1.[Br-].[Br-]` is reported as 30.5 ± 0.1 °C (myc22 MYC G4-DNA parallel; FRET melting; 1 µM, K1 buffer, DNA 0.2 µM, with: ds26 10 µM).
The inhibition of `Fc1ccccc1Nc1nc(NCC2CCCO2)c2ccccc2n1` (stereo not drawn) is reported as 79% (Renilla luciferase reporter mRNA; in vitro translation, inhibitor; Trypanosoma cruzi translation extract; 40 µM).
`c1coc(-c2n[nH]cc2-c2ccnc3ccccc23)c1`: “log2 fold change” -0.11 (IRE1 (Candida albicans); kinase binding, MIB/MS competition; Candida albicans lysate; 10 µM; baseline: DMSO).
